Measured values of several laboratories.
Protocols differ between the studies behind these lines.
Target: Serine/threonine-protein kinase haspin (HASPIN, Homo sapiens, UniProt Q8TF76)

For `NC(=O)[C@@H](O)C[C@H]1CCc2sc3ncnc(O[C@H]4CC[C@H](N5CCOCC5)CC4)c3c21`, the inhibition was 37% (enzyme activity, inhibitor; 10 µM).
The inhibition of `CCn1cc(C(=O)O)c(=O)c2c(N)c(F)c(NC3CCCCC3)cc21` is reported as -7.3% (kinase activity; 0.1 µM, together with: ATP at Km).
The remaining binding of `Cc1cc(NC(=O)[C@H](O)c2cc(F)cc(F)c2)ccc1-c1cnc(N)c(C(=O)NC(C)C)c1` is reported as 100% (binding, competition with immobilised ligand; 0.1 µM).
Under “activity vs control”, `O=C(Cc1ccc(OCc2ccccc2)cc1)NC1(C(=O)O)CCN(C(=O)c2ccc(-c3cccc(Cl)c3)cc2)CC1` is recorded as 126% (enzyme activity, inhibitor; 10 µM).
`Nc1ncc2c(n1)-c1c([nH]c3ccc(C4=CCOCC4)cc13)CCC2` has a remaining binding of 71% (binding, competition with immobilised ligand; 1 µM).
`COc1cc(Nc2nccc(-c3cnn4nc(OC)ccc34)n2)cc(C(F)(F)F)c1` gave a remaining binding of 77% (binding, competition with immobilised ligand; 1 µM).
For `Cc1cccc(O[C@H]2CCC[C@@H](C(C)CNCc3ccncc3)C2)c1` (relative stereo), the inhibition was -3% (enzyme activity, inhibitor; 1 µM).
With `CC(C)=CC1OC(C)(C)C2C=C3C(=O)C(Cl)=CC(O)C3C3C(O)C4OC4C(=O)C132` (centres unmarked) the remaining binding was 73% (cell-free assay, competition with immobilised ligand; 10 µM).
For `CNC1C[S+]2CC[S+]3CC[S+](C1)[Ru-4]321([N]=C=S)[n]2c3ccc(OC)cc3c3c4c(c5cc(F)c[n+]1c5c32)C(=O)NC4=O` (centres unmarked), the remaining binding was 81% (KinomeScan; 0.1 µM; relative to: untreated).
`C=CC(=O)N1CCCC(n2c(=O)c3ncccc3n(Cc3ccc(Oc4ccccc4)cc3)c2=O)C1` (centres unmarked) has a remaining binding of 75% (cell-free assay, competition with immobilised ligand; 1 µM).
The remaining binding of `Cc1cnc2nc1Nc1cccc(c1)COC/C=C/COCc1cc(ccc1OCCN1CCOCC1)N2` is reported as 75% (binding, competition with immobilised ligand; 0.1 µM).
The remaining binding of `CCN1CCN(Cc2ccc(C(=O)Nc3ccc(C)c(NCc4cnc5[nH]ccc5c4OC)c3)cc2C(F)(F)F)CC1` is reported as 23% (binding, competition with immobilised ligand; 1 µM).
`COc1c(Cl)cccc1Nc1c(-c2ccncc2C#C[C@@]2(C)CCCN2C(=O)/C=C/CN(C)C)[nH]c2c1C(=O)NCC2` gave a remaining binding of 64% (cell-free assay, competition with immobilised ligand; 3 µM).
With `C=CC(=O)Nc1cccc(-c2cnc3[nH]cc(C(=O)NC(C)(C)C)c3n2)c1` the inhibition was 6% (enzyme activity, inhibitor; 0.1 µM).

A few entries again:
The remaining binding of `Cc1cnc2nc1Nc1cccc(c1)COC/C=C/COCc1cc(ccc1OCCN1CCOCC1)N2` is reported as 75% (binding, competition with immobilised ligand; 0.1 µM).
